Values quoted from earlier work, collected from citations in different studies.
Numbered parts are unrelated; values within a part may stem from several laboratories.

Sample 1 — effect on: peptide-MHC binding; form: peptide
Target: HLA class I histocompatibility antigen, C alpha chain, allele C*04:01 (Homo sapiens, UniProt P10321)
Sequence | IC50 [µM]
TFVPIAWAAAY | > 20
YMREVGAAL | > 5
RMFKRVFNM | > 5
WPILGFFPM | > 5
REMINHYQV | > 5
YAYNSSLLY | 20
SAYYLDIGF | > 5
FRDRGQHVL | 20
YSLEYFQFVKK | > 20
FYFNWNTPI | 0.664
YTDKIAMSY | 20
LMMNGTSAM | 2.09
FPYAIRLVA | > 5

Single results of other studies
SMILES | target or system | assay | system | conditions | quantity | value
C=C[C@@H]1C[C@]1(NC(=O)[C@@H]1C[C@@H]2CN1C(=O)[C@H](C(C)(C)C)NC(=O)O[C@@H]1C[C@H]1CCCCCc1nc3ccc(OC)cc3nc1O2)C(=O)NS(=O)(=O)C1CC1 | UGT1A1 | inhibitor |  |  | IC50 | 54 µM
Cc1ccncc1NC(=O)Cc1cc(Cl)cc(O[C@@H]2CC(=O)N2)c1 | main protease (Mpro) |  |  | 20 µM | inhibition | 94.5%
CCc1c2c(nc3ccc(OC(=O)N4CCC(N5CCCCC5)CC4)cc13)-c1cc3c(c(=O)n1C2)COC(=O)[C@]3(O)CC |  | refers to: offspring development | rabbit | organogenesis dosing | NOAEL | 0.06 mg/kg
CCCC(C)(C)c1ccc2c(c1)OC(C)(C)[C@@H]1CC=C(C)C[C@@H]21 | cannabinoid receptor CB1 | agonist |  |  | EC50 | > 1 µM
COc1ccc(C2C(C#N)=C(N)OC3=C2C(=O)CC(c2cccc4ccccc24)C3)cc1 (centres unmarked) | EAAT1 (SLC1A3) | inhibitor |  |  | IC50 | 0.66 µM
Cc1ncc2n1-c1ccc(Cl)cc1C(c1ccccc1F)=NC2 |  |  | rat |  | plasma clearance | 44.4 mL/min/kg
CC(C)C[C@H](NC(=O)CNC(=O)c1cc(Cl)ccc1Cl)B(O)O |  |  | blood |  | blood to plasma ratio | 2.38
Cc1cc2c(C(N)=O)cccc2n1-c1nc2c(c(NCc3ccccc3)n1)COCC2 | p97 (VCP) | inhibitor |  | concentration not given | IC50 | 0.011 µM
COc1ccc2c(c1)[C@]13CCCC[C@@H]1[C@H](C2)N(C)CC3 |  |  | rat |  | plasma clearance | 107 mL/min/kg
CCOc1ccccc1OCCN[C@H](C)Cc1ccc(OC)c(S(N)(=O)=O)c1 |  |  | human, plasma | dose not given, range of reported values | AUC | 0.067 to 0.972 µM·h
Cc1ccncc1NC(=O)Cc1cc(Cl)cc(NS(N)(=O)=O)c1 | main protease (Mpro) |  |  | 50 µM | inhibition | 87.9%
C[C@]12C=CC(=O)C=C1CC[C@@H]1[C@@H]2C(=O)C[C@@]2(C)[C@H]1CC[C@]2(O)C(=O)CO |  |  | human, plasma | dose not given, range of reported values | AUC | 0.32 to 6.24 µM·h
CCN(CC)N=O |  | fingerprint mutation, refers to: C>T substitution | rat, liver | concentration not given | mutation frequency | increased

Some of these lines once more (single results of other studies):
SMILES | target or system | assay | system | conditions | quantity | value
Cc1ccncc1NC(=O)Cc1cc(Cl)cc(O[C@@H]2CC(=O)N2)c1 | main protease (Mpro) |  |  | 20 µM | inhibition | 94.5%
CC(C)C[C@H](NC(=O)CNC(=O)c1cc(Cl)ccc1Cl)B(O)O |  |  | blood |  | blood to plasma ratio | 2.38
C=C[C@@H]1C[C@]1(NC(=O)[C@@H]1C[C@@H]2CN1C(=O)[C@H](C(C)(C)C)NC(=O)O[C@@H]1C[C@H]1CCCCCc1nc3ccc(OC)cc3nc1O2)C(=O)NS(=O)(=O)C1CC1 | UGT1A1 | inhibitor |  |  | IC50 | 54 µM
